Measured values gathered from unrelated publications.
Each line is one published result; not all experiments were run side by side. Values joined by “and” are separate records of one study, mostly repeats; a detail may differ.

SMILES	target or system	assay	system	setting	how to read	measurement	value
Cc1ccc(Nc2nccc(N(C)c3ccc4c(C)n(C)nc4c3)n2)cc1S(N)(=O)=O	MAPK1 (human)	kinase activity, inhibitor	–	0.3 µM	–	inhibition	-2%
Cc1cnc(NC(=O)Nc2cc(Br)c(C)cc2OC[C@@H]2CNCCO2)cn1	NLRP3 inflammasome (mouse)	–	mouse BMDM	10 µM	–	inhibition	24.1%
N=C(NCCCSC[C@H]1O[C@@H](n2cnc3c(NCCCc4ccccc4)ncnc32)[C@H](O)[C@@H]1O)NCCCc1ccccc1	CamA DNA adenine methyltransferase (Clostridioides difficile)	enzyme activity, inhibitor, MTase-Glo luminescence (SAH)	–	10 µM, 3 min, pH 7.5, 22 °C, with: SAM 40 µM	–	inhibition	< 10%
Nc1ncnc2c1ncn2[C@H]1C[C@H](O)[C@@H](COP(=O)(O)OP(=O)(O)OP(=O)(O)O)O1	–	binding, equilibrium dialysis LC-MS	–	5 µM, thermostabilized A2AR-BRIL construct	reference: no-protein control, direction not given	z-scored log2 fold change	-0.109
CNc1cc(Oc2cc(C(=O)Nc3cc(N4CCN(C)CC4)cc(C(F)(F)F)c3)ccc2C)ncn1	Aurora kinases A/B/C (human)	kinase probe binding, inhibitor, KiNativ	Huh-7	1 µM	–	inhibition	-17.6%
N=C(NCCCSC[C@H]1O[C@@H](n2cnc3c(NCCCc4ccccc4)ncnc32)[C@H](O)[C@@H]1O)NCc1ccccc1	CamA DNA adenine methyltransferase (Clostridioides difficile)	enzyme activity, inhibitor, MTase-Glo luminescence (SAH)	–	10 µM, 3 min, pH 7.5, 22 °C, with: SAM 40 µM	–	inhibition	< 10%
CCN(CC)CCNC(=O)c1c(C)[nH]c(/C=C2\C(=O)Nc3ccc(F)cc32)c1C	MAPK1 (human)	kinase activity, inhibitor	–	10 µM	–	inhibition	3%
O=P(O)(O)O[C@H]1O[C@H](CO)[C@@H](O)[C@H](O)[C@H]1O	–	binding, equilibrium dialysis LC-MS	–	5 µM, thermostabilized A2AR-BRIL construct	reference: no-protein control, direction not given	z-scored log2 fold change	0.126
NC(=O)c1cnc2[nH]ccc2c1N[C@@H]1[C@@H]2CC3C[C@H]1C[C@@](O)(C3)C2	NLRP3 inflammasome (mouse)	–	mouse BMDM	10 µM	–	inhibition	31.1%
CCCCNC(=N)NCCCSC[C@H]1O[C@@H](n2cnc3c(NCCCc4ccccc4)ncnc32)[C@H](O)[C@@H]1O	CamA DNA adenine methyltransferase (Clostridioides difficile)	enzyme activity, inhibitor, MTase-Glo luminescence (SAH)	–	10 µM, 3 min, pH 7.5, 22 °C, with: SAM 40 µM	–	inhibition	< 10%
CC(C)n1nc(-c2ccc3oc(N)nc3c2)c2c(N)ncnc21	NLRP3 inflammasome (mouse)	–	mouse BMDM	10 µM	–	inhibition	7.46%
C#Cc1cc(-c2cc(Nc3nc(N[C@@H](C)c4ccc(F)cn4)ncc3Cl)n[nH]2)ccc1C=O	CCDC6-RET kinase fusion, human	kinase activity, inhibitor	–	0.2 µM	–	inhibition	76% and 75.2%
N=C(NCCCSC[C@H]1O[C@@H](n2cnc3c(NCCCc4ccccc4)ncnc32)[C@H](O)[C@@H]1O)NC1CCCCC1	CamA DNA adenine methyltransferase (Clostridioides difficile)	enzyme activity, inhibitor, MTase-Glo luminescence (SAH)	–	10 µM, 3 min, pH 7.5, 22 °C, with: SAM 40 µM	–	inhibition	< 10%
Clc1ccc(Nc2nnc(Cc3ccncc3)c3ccccc23)cc1	NLRP3 inflammasome (mouse)	–	mouse BMDM	10 µM	–	inhibition	89%
